Experimental data from different studies.
Each line is one published result; not all experiments were run side by side.

| SMILES | assay | system | conditions | quantity | result |
| --- | --- | --- | --- | --- | --- |
| COc1c(N2C[C@@H]3CCCN[C@@H]3C2)c(F)cc2c(=O)c(C(=O)O)cn(C3CC3)c12 | – | healthy volunteers | 400 mg | subjects with decreased appetite | 0% |
| Cc1nc2ccc(F)cc2n1-c1nc(N)c(F)c(Nc2ccc(C(F)(F)F)cc2)n1 | – | leiomyosarcoma patients | 300 mg, added: dacarbazine 1000 mg/m2 | subjects with neutropenia | 47.6% |
| C[C@H]1CNCCCN1S(=O)(=O)c1cccc2cncc(F)c12 | – | healthy adult men | ocular, 1 drop per eye twice daily, 8 days, adverse drug reaction | subjects with conjunctival hyperaemia | 100% |
| O=C(O)CCC(=O)O.[2H]C([2H])([2H])Oc1cc(C)c2[nH]ccc2c1CN1CC[C@@H](C2CC2)C[C@H]1c1ccc(C(=O)O)cc1 | multiple ascending dose | healthy Chinese subjects | 100 mg twice daily | subjects with reduced potassium TEAE | 0% |
| C=CC(=O)NC1CCN(c2ncc3ncnc(Nc4ccc(Oc5ccc6c(c5)ncn6C)c(C)c4)c3n2)CC1 | – | healthy male volunteers | oral, 60 mg, at least 1 treatment-emergent event | subjects with adverse events | 88% |
| CC[C@H](C)[C@H](NC(=O)[C@H](Cc1ccccc1)NC(=O)[C@H](CCC(=O)O)NC(=O)[C@H](CCCCNC(=O)COCCOCCNC(=O)COCCOCCNC(=O)CC[C@H](NC(=O)CCCCCCCCCCCCCCCCC(=O)O)C(=O)O)NC(=O)[C@H](C)NC(=O)[C@H](C)NC(=O)[C@H](CCC(N)=O)NC(=O)CNC(=O)[C@H](CCC(=O)O)NC(=O)[C@H](CC(C)C)NC(=O)[C@H](Cc1ccc(O)cc1)NC(=O)[C@H](CO)NC(=O)[C@H](CO)NC(=O)[C@@H](NC(=O)[C@H](CC(=O)O)NC(=O)[C@H](CO)NC(=O)[C@@H](NC(=O)[C@H](Cc1ccccc1)NC(=O)[C@@H](NC(=O)CNC(=O)[C@H](CCC(=O)O)NC(=O)C(C)(C)NC(=O)[C@@H](N)Cc1cnc[nH]1)[C@@H](C)O)[C@@H](C)O)C(C)C)C(=O)N[C@@H](C)C(=O)N[C@@H](Cc1c[nH]c2ccccc12)C(=O)N[C@@H](CC(C)C)C(=O)N[C@H](C(=O)N[C@@H](CCCNC(=N)N)C(=O)NCC(=O)N[C@@H](CCCNC(=N)N)C(=O)NCC(=O)O)C(C)C | – | Japanese subjects | 1.0 mg, metabolism and nutrition disorders | subjects with adverse events | 37.5% |
| Cc1c(Cl)c(C)[n+]([O-])c(Cl)c1-c1noc(-c2cc(O)c(O)c([N+](=O)[O-])c2)n1 | – | healthy subjects | oral, dose not given, all subjects | subjects with any serious TEAE | 0% |
| Cn1cc(Nc2nc(N)nc(-c3cccc(-n4ccc5cc(C6CC6)cc(F)c5c4=O)c3CO)n2)cn1 | – | healthy subjects | oral, 300 mg tablet, fasted | subjects with nausea | 0% |
| NCCONC(=O)[C@@H]1CC[C@@H]2CN1C(=O)N2OS(=O)(=O)O | – | healthy Chinese male subjects | intravenous, 1 g | subjects with TEAEs | 62.5% |
| CC(C)n1c(Nc2cccnc2)nc2cnc(Nc3ccc(N4CCN(C)CC4)cc3)nc21 | item: aspartate aminotransferase increased | healthy male subjects | oral, 100 mg, study, added: itraconazole | subjects with adverse event | 7.1% |
| CC#CC(=O)N[C@H]1CCCN(c2c(F)cc(C(N)=O)c3[nH]c(C)c(C)c23)C1 | – | healthy volunteers | oral, 3 mg once daily, 14 days | subjects with adverse events | 50% |
| NS(=O)(=O)c1cc(C(=O)O)c(NCc2ccco2)cc1Cl | item: vascular disorders | healthy men | oral, 8 days, treatment-emergent, crossover trial | subjects with adverse event | 0% |
| O=C(Nc1cnccc1Cl)N1CCN(Cc2ccc3c(c2)OC(F)(F)O3)CC1 | multiple ascending dose | young men | 10 mg, at least 1 treatment-emergent event | subjects with adverse events | 100% |
| Cc1nc(-c2ccc(OCC(C)C)c(C#N)c2)sc1C(=O)O | – | healthy Chinese subjects, fasted | oral, 40 mg single dose | subjects with adverse events | 12.8% |
